Measured values of several laboratories.
Numbered parts are unrelated; each lists some results of a single study. Changes are numbered by the printed parent chain.

Block 1
Target: Centromere-binding protein 1, full length, His-tagged (CBF1, Saccharomyces cerevisiae, UniProt P17106, residues 1-351)
Chain of UniProt P17106 (whole entry, looked up): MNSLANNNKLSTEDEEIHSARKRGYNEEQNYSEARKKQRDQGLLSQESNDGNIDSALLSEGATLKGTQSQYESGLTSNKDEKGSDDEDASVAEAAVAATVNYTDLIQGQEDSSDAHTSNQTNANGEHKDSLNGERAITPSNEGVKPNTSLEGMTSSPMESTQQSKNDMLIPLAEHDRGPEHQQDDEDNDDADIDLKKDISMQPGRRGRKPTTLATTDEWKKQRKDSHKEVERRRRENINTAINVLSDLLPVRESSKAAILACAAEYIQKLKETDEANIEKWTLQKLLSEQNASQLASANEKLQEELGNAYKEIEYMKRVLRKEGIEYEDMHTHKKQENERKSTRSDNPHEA
Technique: competition protein-binding microarray
Molecule type: double-stranded DNA, one strand shown
Matrix: in vitro
Tested at: 2 µM
Notes: whole 60-bp probe, lowest competitor level
Together with: Pho4 competitor, 0.05 µM
Direction: higher = stronger binding
Shared flanks, not repeated: … GTCTTGATTCGCTTGACGCTGCTG
Strand	fluorescence intensity [a.u.]
CTAACGAAGGTTTGATTAGTGGGTGACAAGCCAAGT	71.8
CTTTCCCGATCTTGTCACATCACTTTAGCACATTTG	79.4
CATACCCAACCTTGGACAGTGGGTGAAGATATTTGT	53.1
GGCCGGGGCATGTTTCACGGGAAGTTCTGTGGCAGG	68.1
CGGGGTTAAGTTTGCAGCGTGGGTGGCTTGCAGCAG	62.2
ACTTTAAGACGAGACCTCGTGGAACCAAGATCGGTG	88.6
TGCGCAACAACTTTTCACGTGACGTTATGTCTAGAA	4700
CTAACGAAGGTTTGAAGTGTGGGTGACAAGCCAAGT	64.4
AAATTACCGCCTTGACTCGTGAAACTGGATAATTCG	79.2
CTTTCCCGATCTTGGATCGTGGGTGTAGCACATTTG	87.9
TACAGAACCCAGATACACATGTAAACAACGAGCATC	74.7
CCTCACCATTCGGGGCAGGTGACGAAGCAAGAGCGA	187
CTTCTGTAAATTTGTCCTGTGGGTGGACGCGCCCCG	78
CTAACGAAGGTTTGCCTGGTGGGTGACAAGCCAAGT	65.5
CTTCTGTAAATTTTTCACGTGGCATGAAGCGCCCCG	696
CGGGGTTAAGTTTGTATCGTGGGTGGCTTGCAGCAG	71
AAAGCGGTAATTTGAGGTGTGGGTGCAGATATCTAT	70.5
TTAAATCGATTGGATCAGGTGAGGAAGTACTCAGTG	248
GTCTTGTCTCATTTTCACGTGTCATTCCCCACTTCA	838
TGCGCAACAACTTTTCACGTGATTTTATGTCTAGAA	3840
TGGTTGGCATCTTATCCCGTGGTGAATCCATTACCA	138

Block 2
Target: PABPC1L2, full length, GST fusion (mouse, UniProt A0ABA7IW68)
Technique: RNAcompete
Molecule type: RNA
Matrix: in vitro
Tested at: 20 nM
Notes: 7-mer, probes averaged, single round
Baseline: mean of 7-mers
Direction: higher = stronger binding
Residues (chain): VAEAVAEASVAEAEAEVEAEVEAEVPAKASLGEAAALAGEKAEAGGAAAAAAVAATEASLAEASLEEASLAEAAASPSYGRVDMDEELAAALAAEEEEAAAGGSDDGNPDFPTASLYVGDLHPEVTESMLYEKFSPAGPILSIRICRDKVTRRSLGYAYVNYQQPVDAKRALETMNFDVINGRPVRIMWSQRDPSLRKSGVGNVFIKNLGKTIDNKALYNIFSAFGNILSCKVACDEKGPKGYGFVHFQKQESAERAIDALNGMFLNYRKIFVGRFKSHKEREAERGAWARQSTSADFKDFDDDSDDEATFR
Strand	7-mer Z-score
GUUCUGA	-0.316
GAAAGGG	0.573
UUUCCAA	-0.266
UGUCAUU	-0.333
CCACGCG	-0.186
GUGCGUA	-0.238
UGGGCCU	-0.121
GUCCGGG	-0.0047
CAUUCUA	-0.383
UAGUCAG	-0.318
CUCAAAG	-0.0591
AUAACGC	-0.0174
UCGGCUG	-0.213
CGUCCGA	-0.378
UACUGCU	-0.202
AUAAGGU	0.0261
CACAAAA	5.2
ACCGACG	-0.128
ACGACGC	-0.295
GAUGAUC	-0.0826
CCAGAGA	0.124
UCCAGAA	0.066
UCCAAAU	-0.0101
GCUGAUG	-0.108
AUUAGAG	0.102

Block 3
Target: Histone acetyltransferase KAT6A, both winged helices, GST fusion (KAT6A, Homo sapiens, UniProt Q92794, residues 1-181)
Technique: protein binding microarray
Molecule type: double-stranded DNA, one strand shown
Matrix: in vitro
Tested at: not given
Notes: 8-mer, flanks averaged, mean of 2 arrays, mostly near background
Baseline: not given
Direction: higher = stronger binding
Residues (chain): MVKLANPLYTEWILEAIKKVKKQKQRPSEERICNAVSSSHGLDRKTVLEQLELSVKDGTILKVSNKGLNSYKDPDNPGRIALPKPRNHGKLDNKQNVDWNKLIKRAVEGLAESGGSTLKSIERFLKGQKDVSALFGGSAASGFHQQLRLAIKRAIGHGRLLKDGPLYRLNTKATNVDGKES
Strand	E-score
ACTGACAG	-0.00768
CAGGCACC	-0.0466
CACGCATA	0.0993
GTTCTTGA	-0.097
CGCCTATC	0.0319
AACCACGC	0.149
CTATGGAA	-0.163
CTACGCAG	0.00221
GGAGAATA	-0.108
CCCCTCTA	-0.241
CGATTCCC	0.0148
CAGAGAAC	-0.109
CACCTTAA	-0.0644
GTGACAAC	-0.0205
CCTTGACA	0.0587
CCTCTGCC	-0.094
GACATAGA	-0.116
CACCGCCA	-0.0736
CCTCTCCC	-0.174
CCGGACTC	0.118
AATTGTCT	-0.156

Block 4
Target: Prothrombin, mature alpha-thrombin (F2, Homo sapiens, UniProt P00734)
Technique: aptamer microarray, sandwich
Molecule type: DNA with 2'F-ANA
Matrix: in vitro
Tested at: 200 nM
Notes: whole 15-mer aptamer, many near background
Together with: Cy3 exosite-II aptamer, 400 nM
Direction: higher = stronger binding
Strand: GGTTGGTGTGGTTGG
Modification	mean fluorescence intensity
2'F-ANA at 1 2 3 4 6 11 12 14	64.1 a.u.
2'F-ANA at 1 2 4 5 6 7 8 9 11 13 14 15	57.4 a.u.
2'F-ANA at 1 2 6 7 9 13 14 15	49.9 a.u.
2'F-ANA at 2 4 5 6 7 9 12 15	145 a.u.
2'F-ANA at 1 5 6 11 15	53.8 a.u.
2'F-ANA at 2 3 4 7 8 9 10 12	366 a.u.
2'F-ANA at 3 4 6 7 9 10 14 15	167 a.u.
2'F-ANA at 1 2 3 5 7 8 9 13 15	50.6 a.u.
2'F-ANA at 3 8 9 10	597 a.u.
2'F-ANA at 4 6 8 9 11 12 13 15	273 a.u.
2'F-ANA at 2 6 9 10 11 12 13 15	112 a.u.
2'F-ANA at 1 2 8 12 15	419 a.u.
2'F-ANA at 2 3 6 7 8 14	514 a.u.
2'F-ANA at 1 3 4 5 9 13 15	59.7 a.u.
2'F-ANA at 1 3 6 9 10 11 13	71.5 a.u.
2'F-ANA at 1 2 6 7 9 10 11 12	57.5 a.u.
2'F-ANA at 2 3 4 5 6 7 8 9 10 11 12	59.1 a.u.
2'F-ANA at 1 4 5 6 8 9 10 12 14 15	50.3 a.u.
2'F-ANA at 1 4 6 8 9 10	49 a.u.
2'F-ANA at 1 2 4 6 7 14	52.5 a.u.
2'F-ANA at 1 4 9 13 14 15	48.6 a.u.

Block 5
Target: Fragile X messenger ribonucleoprotein 1, C-terminal low-complexity region (Fmr1, Mus musculus, UniProt P35922)
Technique: RNA Bind-n-Seq
Molecule type: RNA
Matrix: in vitro
Tested at: 200 nM
Notes: whole 134-nt RNA, ends assumed
Together with: 150 mM LiCl
Baseline: input library
Direction: higher = stronger binding
Library: 7-deaza-guanosine replaces G
Shared flanks, not repeated: GGGAGUUCUACAGUCCGACGAUC … UGGAAUUCUCGGGUGUCAAGG
Strand	log2 enrichment
AAAAUGCAGGUGGGCAUCUUUGGGAAGUGGGGCAAGGGGGGGAUAGGGAGGGGGGUAACACUUUGGGAACAGGUGGUCCCAGGUCGUUUC	1.28
AGUCCUGUGCUACACAUCGUAUGUACCGAAUCAAAUUUUUAAAUUUUUAAAUUUAAAAAAGUAUUAUGUUACGCCGUUCGGAUCUGCACU	-3.33
UAAUUAUGUUUUAUUUUCUUUAAUUGCAGGACUUCAUAGACCUCACGUUGUCGAAGACUCAACGAAAGACUCCAACCGUUAUUCAUAAAC	-0.0709
UUAAGUGUAUUGGAGCCCCAAGUUCUCAAUUAUUUGAGCCUCCGGGCGACAGAGCAAGAAAAGGUGAGUGGAUAGCGCAGGCAUAUUGGU	-0.801
AGUCCUGUGCUACACAUCGUAUGUACCGAAUCGGUUUUUGGGUUUUUGGGGUUUUUGGAAAGUAUUAUGUUACGCCGUUCGGAUCUGCAC	-1.09
AUCAUGCAGGUGGGCAUCUUUGGGAAGUGGGGCAAGGGGGGGAUAGGGAGGGGGGUAACACUUUGGGAACAGGUGGUCCCAGGUCGUUUC	1.52
GUCCUGUGCUACACAUCGUAUGUACCGAAUCGGCCCCCGGGCCCCCGGGGCCCCCGGGGAAAGUAUUAUGUUACGCCGUUCGGAUCUGCA	-3.16
CUCAAGUCCUGUGCUACACAUCGUAUGUACCGAAUCGGGAGGGAAAGGGAGGGAAAGUAUUAUGUUACGCCGUUCGGAUCUGCACUUCCA	-0.231
UGGGAGGUGGAUUUUGUUUAUUUUUUUAGCUCAUUUCCAGGGCUGGGAAUUUUUUUUUAAUAUGUGUCAUGAAUAAAGUUGUUUUUGAAA	-0.175
UGGUCAUGGGAUGGAGAACCAGUUCUUCCCUUAUAUCUUCACCAUAUGACUAUUGACCCUGUCUUAGGCUGCUCCCAGGCCGUUCCAUUG	-0.0965
UAACUUUAGAGGAGGAUCUGAUGGAUAUGGCAGUGGACGUGGAUUUGGGGAUGGCUAUAAUGGGUAUGGAGGAGGACCCGGAGGUGGCAA	-0.204

Block 6
Target: ABI1, truncated, D143A, DHFR fusion (Arabidopsis thaliana)
Technique: DHFR PCA, deep sequencing
Matrix: yeast
Notes: methotrexate growth selection, single substitutions
Together with: (+)-ABA 0 µM
Baseline: wild-type fitted maximum
Direction: higher = stronger binding
Starting sequence: PYL1, truncated, DHFR fusion (Arabidopsis thaliana); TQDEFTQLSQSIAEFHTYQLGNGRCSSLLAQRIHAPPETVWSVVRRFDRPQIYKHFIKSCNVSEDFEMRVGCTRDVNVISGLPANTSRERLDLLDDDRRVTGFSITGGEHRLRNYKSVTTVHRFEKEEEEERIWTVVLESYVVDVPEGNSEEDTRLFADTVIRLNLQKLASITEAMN; partner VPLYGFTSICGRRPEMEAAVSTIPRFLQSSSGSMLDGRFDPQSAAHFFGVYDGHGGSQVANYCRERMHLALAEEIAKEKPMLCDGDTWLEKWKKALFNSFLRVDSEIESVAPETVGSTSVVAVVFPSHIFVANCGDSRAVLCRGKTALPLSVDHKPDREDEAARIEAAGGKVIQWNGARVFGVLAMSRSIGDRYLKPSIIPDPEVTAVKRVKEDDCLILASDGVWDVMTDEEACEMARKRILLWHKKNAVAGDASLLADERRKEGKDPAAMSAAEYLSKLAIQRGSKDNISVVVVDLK
Substitution	relative binding score
M68W	-1.07%
R49E	10.3%
V145K	-12.5%
N77Q	59.5%
V143K	-1.88%
L94Y	4.74%
D97L	-3.96%
S171F	-9.49%
R163V	6.37%
E67A	9.21%
V100G	-1.26%
F5A	8.04%
N22Q	39.3%
N77W	0.718%
F5G	0.709%
E151P	38.2%
D144G	-0.729%
E4D	14.3%
D92E	3.53%
L93S	-1.79%
I79M	12.3%
T73V	34.9%
Q167L	19.6%
M68P	4.79%
R24E	5.84%

For quick reference, copied from above (block 4):
Modification	mean fluorescence intensity
2'F-ANA at 3 4 6 7 9 10 14 15	167 a.u.
2'F-ANA at 1 2 3 5 7 8 9 13 15	50.6 a.u.
2'F-ANA at 3 8 9 10	597 a.u.
2'F-ANA at 4 6 8 9 11 12 13 15	273 a.u.
2'F-ANA at 2 6 9 10 11 12 13 15	112 a.u.
2'F-ANA at 1 2 8 12 15	419 a.u.
2'F-ANA at 2 3 6 7 8 14	514 a.u.
2'F-ANA at 1 3 4 5 9 13 15	59.7 a.u.
2'F-ANA at 1 3 6 9 10 11 13	71.5 a.u.
2'F-ANA at 1 2 6 7 9 10 11 12	57.5 a.u.
